Published values collected from several papers.
Parts stem from different laboratories: compare values within a part only. Changes are numbered by the printed parent chain.

Block 1
Target: ABI1, truncated, D143A, DHFR fusion (Arabidopsis thaliana)
Method: DHFR PCA, deep sequencing
Sample: yeast
Notes: methotrexate growth selection, single substitutions
Added: (+)-ABA 58 µM
Relative to: wild-type fitted maximum
Reading: higher = stronger binding
Parent: PYL1, truncated, DHFR fusion (Arabidopsis thaliana); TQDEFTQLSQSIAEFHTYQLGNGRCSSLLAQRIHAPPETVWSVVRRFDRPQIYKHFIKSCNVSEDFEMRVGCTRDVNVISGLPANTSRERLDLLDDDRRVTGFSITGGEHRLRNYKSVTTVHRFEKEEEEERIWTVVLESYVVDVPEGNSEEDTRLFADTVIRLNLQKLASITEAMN
| Variant | relative binding score |
| --- | --- |
| S59G | 78.3% |
| S117I | -1.55% |
| N165P | 3.64% |
| K126Q | 96.6% |
| F56Q | 3.61% |
| D75R | 82.1% |

Block 2
Target: Histone acetyltransferase KAT6A, winged helix 2, GST fusion (KAT6A, Homo sapiens, UniProt Q92794, residues 85-181)
Method: protein binding microarray
Form: double-stranded DNA, one strand shown
Sample: in vitro
Tested at: not given
Notes: 8-mer, flanks averaged, mean of 2 arrays, mostly near background
Relative to: not given
Reading: higher = stronger binding
Construct (chain): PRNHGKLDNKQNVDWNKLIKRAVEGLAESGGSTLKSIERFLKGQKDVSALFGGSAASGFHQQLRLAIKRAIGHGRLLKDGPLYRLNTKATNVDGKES
| Sequence | E-score |
| --- | --- |
| CTCATACA | -0.18 |
| AAGGCGGT | 0.0453 |
| ATACATAG | 0.106 |
| GAATCAAC | 0.157 |
| AGGGCTCC | -0.107 |
| CCTCAGGA | 0.00717 |
| CGAAAGCA | 0.168 |
| TGGCAAAA | 0.12 |

Block 3
Target: CCNB1, cyclin fold, Cln2 fusion (human)
Method: yeast growth competition, sequencing
Sample: yeast
Notes: weak parent motif
Relative to: not given
Reading: higher = stronger binding
Parent: RP1L1 docking peptide (human); TLGLGPLSFTLED
| Variant | normalised enrichment score |
| --- | --- |
| ALGLGPLSFTLED [T1A] | -0.0162 |
| TLGLGPLSFTAED [L11A] | -0.113 |
| TLGLGPASFTLED [L7A] | -0.239 |
| TLGLGPLSATLED [F9A] | -0.156 |
| TLALGPLSFTLED [G3A] | -0.0342 |
| TLGLGALSFTLED [P6A] | -0.239 |

Mixed results
| Molecule | target | test | system | conditions | how to read | quantity | result |
| --- | --- | --- | --- | --- | --- | --- | --- |
| PhoQ, residues 284 288 289 292 302 303 NSMLDC | PhoP, residues 12 14 15 18 19 LHSVW (Escherichia coli, UniProt P23836) | Sort-seq, refers to: YFP reporter | E. coli | PhoQ-PhoP variant library, added: 10 µM Mg2+ | relative to: high Mg2+ state, higher = stronger signaling | fold induction | 4.79 |

A few entries again (block 2):
| Sequence | E-score |
| --- | --- |
| AGGGCTCC | -0.107 |
| CTCATACA | -0.18 |
| CGAAAGCA | 0.168 |
